Results collected from several papers.
Each line is one published result; not all experiments were run side by side. “And” joins repeats or separate records; there may be more than shown. ± gives the spread as reported.
CYP3A7: Cytochrome P450 3A7 (CYP3A7, Homo sapiens, UniProt P24462)

| SMILES | target or system | assay | test system | conditions | scale | measurement | value |
| --- | --- | --- | --- | --- | --- | --- | --- |
| CN1CCN(Cc2ccc(NC(=O)c3cncc(C#Cc4cnc(N)c5ncccc45)c3)cc2C(F)(F)F)CC1 | SCN5A (Homo sapiens, UniProt Q14524) | sodium current, inhibitor | – | – | – | IC50 | > 30 µM |
| C[C@H]1CN(c2n[nH]c3nc(N[C@H]4CC[C@H](NS(=O)(=O)CCC(F)(F)F)CC4)ncc23)CCO1 | HSD17B4 (Homo sapiens, UniProt P51659) | inhibitor, Kinobeads competition profiling | – | 0.16 µM | relative to: vehicle | relative abundance | 1 |
| CC(C)[C@H](C(=O)O[C@H](C#N)c1cccc(Oc2ccccc2)c1)c1ccc(Cl)cc1 | human cytosolic CES1 | IVIVE from expressed enzymes | human, 5 years old | – | relative to: total hepatic CLint in vivo | relative enzyme contribution | 29.1% |
| O=S(=O)(O)C(F)(F)C(F)(F)C(F)(F)C(F)(F)C(F)(F)C(F)(F)C(F)(F)C(F)(F)F | CYP3A7 | enzyme activity, inhibitor | – | 100 µM, with: dibenzylfluorescein 0.15 µM | relative to: DMSO | inhibition | 71.5 ± 1.66% |
| O=C(O)COc1nn(Cc2ccccc2)c2ccccc12 | ABCB11 (Homo sapiens, UniProt O95342) | bile salt transport, inhibitor | – | – | – | IC50 | > 100 µM |
| O=C(O)C(F)(F)C(F)(F)C(F)(F)C(F)(F)C(F)(F)C(F)(F)C(F)(F)F | CYP3A7 | type I binding spectrum | – | pH 7.4, second binding event | – | Hill coefficient | 1.48 |
| CC1(C)[C@H](C(=O)OCc2cccc(Oc3ccccc3)c2)[C@@H]1C=C(Cl)Cl | human cytosolic CES1 | IVIVE from expressed enzymes | human, 5 years old, expressed human CES1 | 0.1 µM | relative to: total hepatic CLint in vivo | relative enzyme contribution | 31.7% |
| COC(=O)c1c(-c2cc(OC)c(OC)c(OC)c2)c2ccc(OCc3ccccn3)cc2c(=O)n1-c1ccc(N)cc1 | Plasmodium falciparum | – | Dd2 | – | – | IC50 | 2.51 µM |
| Cc1cc2nc3c(=O)[nH]c(=O)nc-3n(C[C@H](O)[C@H](O)[C@H](O)COP(=O)(O)O)c2cc1C | nfsB (Escherichia coli K-12, UniProt P38489, K14R) | bound cofactor redox, redox titration | – | pH 7.0, 25 °C, anaerobic | – | midpoint potential | -193 ± 4 mV |
| CC1(C)C(/C=C(\Cl)C(F)(F)F)C1C(=O)OC(C#N)c1cccc(Oc2ccccc2)c1 (stereo not shown) | human cytosolic CES1 | IVIVE from expressed enzymes | human, 5 years old | – | relative to: total hepatic CLint in vivo | relative enzyme contribution | 38.4% |
| Cn1nccc1[C@]1(CNC(=O)c2ccc(F)c(F)c2-c2ccc(C(F)(F)F)cc2)NC(=O)NC1=O | CYP3A4 (human) | – | recombinant CYP3A4 | with: midazolam | no inhibition up to value | IC50 | > 20 µM |
| Fc1ccc([C@@H]2CCNC[C@H]2COc2ccc3c(c2)OCO3)cc1 | Plasmodium falciparum | – | Dd2 | – | – | IC50 | 12.6 µM |
| CC1(C)C(C=C(Cl)Cl)C1C(=O)OC(C#N)c1ccc(F)c(Oc2ccccc2)c1 (stereo not shown) | human microsomal CES2 | IVIVE from expressed enzymes | human, 6 months old, expressed human CES2 | 0.1 µM | relative to: total hepatic CLint in vivo | relative enzyme contribution | 0.21% |
| Cc1cc(C(=O)NC(C)(C)COc2cccc3c2C(N)=NS(=O)(=O)N3)cc(C)n1 | Escherichia coli | Ames test, initial | WP2 uvrA | 1.50 µg/plate, with: rat liver S9 | relative to: solvent control | revertant ratio | 0.8 |
| CC(C)=CC1C(C(=O)OC(C#N)c2cccc(Oc3ccccc3)c2)C1(C)C (stereo not shown) | human cytosolic CES1 | IVIVE from expressed enzymes | human, 6 months old | – | relative to: total hepatic CLint in vivo | relative enzyme contribution | 30.1% |
| O=C(O)C(F)(F)C(F)(F)C(F)(F)C(F)(F)C(F)(F)C(F)(F)C(F)(F)F | SLC22A8 (Homo sapiens, UniProt Q8TCC7) | uptake, substrate | HEK293 cells stably expressing SLC22A8, HBSS with HEPES | pH 7.4 | – | CLint | 7.12 ± 1.51 µL/min/mg |
| CCCC[C@H](NC(C)=O)C(=O)N[C@@H](CO)C(=O)N[C@H](C(=O)N1CCC[C@H]1C(=O)N[C@@H](C)C(=O)N[C@@H](CCCNC(=N)N)C(=O)N[C@@H](CCCNC(=N)N)C(=O)N[C@@H](CCCNC(=N)N)C(=O)N[C@@H](CC(C)C)C(=O)N[C@@H](CCCC)C(=O)N[C@@H](CCCNC(=N)N)C(=O)N[C@@H](CC(=O)O)C(=O)N[C@@H](Cc1ccccc1)C(=O)N[C@@H](CCCCN)C(=O)N[C@@H](CCCNC(=N)N)C(=O)N[C@@H](CC(C)C)C(=O)N[C@@H](CCC(N)=O)C(N)=O)[C@@H](C)O | proteinase K | LC-MS | – | 25 µM, 102.4 min, pH 7.4 | – | remaining peptide | 0% |
| O=S(=O)(NCCNC/C=C/c1ccc(Br)cc1)c1cccc2cnccc12 | PKA | inhibitor | mouse zygotes | 20 µM, Post hCG injection, 96 h, early embryonic development | – | dead embryos | 5% and 5.26% and 0% |
| CCN(C)C(=O)Oc1cccc([C@H](C)N(C)C)c1 | H+/organic cation antiporter | cell uptake | hCMEC/D3 | – | – | intrinsic clearance | 10.3 µL/min/mg protein |
| CC(C)CC(=O)OC[C@H]1O[C@@](C#N)(c2ccc3c(N)ncnn23)[C@H](O)[C@@H]1O | ABCB1 (Homo sapiens, UniProt P08183) | apical to basolateral transport | Caco-2 | 90 µM, 2 h, with: zosuquidar 25 µM | – | recovery | 55.4% |
| CO[C@H]1C[C@@H]2CC[C@@H](C)[C@@](O)(O2)C(=O)C(=O)N2CCCC[C@H]2C(=O)O[C@H]([C@H](C)C[C@@H]2CC[C@@H](OC(=O)NCCOCCOCCOCCOCCOCCOCCOCCOCCC(=O)N3CCc4cc(Cn5nc(-c6ccc7oc(N)nc7c6)c6c(N)ncnc65)ccc4C3)[C@H](OC)C2)C[C@@H](O)[C@H](C)/C=C(\C)[C@@H](O)[C@@H](OC)C(=O)[C@H](C)C[C@H](C)/C=C/C=C/C=C/1C | – | phase 1 dose escalation | advanced solid tumour patients | intravenous, 16 mg weekly, grade ≥3 | – | AEs causing dose modification | 100% |
| CC(=O)O[C@@H]1C[C@@]23C[C@@]24CC[C@H](O[C@@H]2OC[C@@H](O)[C@H](O)[C@H]2O)C(C)(C)[C@@H]4CC[C@H]3[C@]2(C)C[C@@H]3O[C@@]4(C[C@@H](C)[C@@H]3[C@@]12C)OC[C@@]1(C)O[C@@H]41 | Nr1i2 (Mus musculus, UniProt O54915) | luciferase reporter, activator | HepG2 transfected with mouse PXR | 10 to 50 µM, 24 h | relative to: vehicle | reporter activation | < 1.5 fold |
